Results pooled from the literature.
Each numbered part is a random draw from the data of one study; scales do not carry over between parts. Changes are numbered by the printed parent chain.

Set 1 — method: RNA Bind-n-Seq; form: RNA; sample: in vitro; concentration: not given; relative to: input RNA pool; direction: higher = stronger binding
Target: RING finger protein unkempt homolog, zinc fingers 1-6, GST-SBP tag (UNK, Homo sapiens, UniProt Q9C0B0, residues 30-357)
UniProt Q9C0B0, sequence (30-357, looked up): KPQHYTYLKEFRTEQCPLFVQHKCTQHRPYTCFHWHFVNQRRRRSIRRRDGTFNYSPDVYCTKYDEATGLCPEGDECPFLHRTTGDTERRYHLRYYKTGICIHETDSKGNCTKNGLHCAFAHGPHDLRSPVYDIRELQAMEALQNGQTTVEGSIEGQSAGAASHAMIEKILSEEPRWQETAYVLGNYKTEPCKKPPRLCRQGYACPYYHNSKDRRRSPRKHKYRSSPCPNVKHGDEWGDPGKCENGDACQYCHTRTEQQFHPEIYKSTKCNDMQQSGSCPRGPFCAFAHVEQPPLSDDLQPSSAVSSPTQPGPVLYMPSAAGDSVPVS
Setting: RNA with constant flanks, human-mouse chimeric sites, ends assumed
With `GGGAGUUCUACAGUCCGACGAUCCGGAGCCCUCCUCUCCCACAGGCCCAAGAUAUAACCCACCAGUGCCUUCUGUCUGCUUGUCAGCUCUGUCAAUCACGGCCCUGCCUUCACGCCCACACCAAGUGCCCAAAGUGGGGAGGGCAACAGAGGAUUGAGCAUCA` the bound/input enrichment was 0.326 ratio.
The bound/input enrichment of `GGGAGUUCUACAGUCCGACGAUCAUGGUUGUGUCUCUUGAGAUCUAAAAACAAGAUGACUUUUCCUGGCACAUAUUCCAAAGCAUAGACUUUGUUGCCUGCUGCUUAUUGUCUAAUUUACAGGGAUAUUUAAUUUUGUCAGGUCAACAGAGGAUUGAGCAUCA` is reported as 0.259 ratio.
The bound/input enrichment of `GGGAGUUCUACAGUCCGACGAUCUACUGCUGCUUUCAACUUAAAUCACUGAGGCAUCUCUACUGUUCUGUGAGCAUCAGGAUUUUAGUGCUGUGUCACCACAUGAGAGUUCAGAAGCAGCCUUUCUGUGGAGGGUGGGAAUGACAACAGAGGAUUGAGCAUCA` is reported as 0.174 ratio.
`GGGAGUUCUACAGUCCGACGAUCUGUGAACUGAAAGGUGUGAUCUAAAAACAAGAUGACUUUUCCUGGCACAUAUUCCAAAGCAAAGACUUUGUUGCCUGCUGCUUAUUGUCUAAUUUACAGGGAUAUUUAAUUUUGUCAGGUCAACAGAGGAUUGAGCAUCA` gave a bound/input enrichment of 0.205 ratio.
The bound/input enrichment of `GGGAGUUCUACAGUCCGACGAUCUAAAUUAGGGCUGCCGUUUUCUGUUUCUCCCUGGGCUGCGGAAAGCCAGAAGAUUUUAUCUAGCUUAUACAAGGCUGCUGGUGUUCCCUCCCUCCCGCCACGAGGGUGUUUUUGGCUGCACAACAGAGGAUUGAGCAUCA` is reported as 0.613 ratio.
The bound/input enrichment of `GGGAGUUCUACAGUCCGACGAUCCUGAAAAACACAGAUAUCAAAGUUGUUGACUUUGGAAGUGCAACGUAUGAUGAUGAACAUCAUAGUACUUUGGUGUCUACCCGGCACUACAGGGCUCCCGAGGUCAUUUUGGCUUUAGGUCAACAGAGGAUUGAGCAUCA` is reported as 0.262 ratio.
With `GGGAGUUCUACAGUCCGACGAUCUUUGUAUUCAUGUUAAGCACACGUGCUGGUGGUCUGGGCAUCAAUCUUGCAACUGCUGAUGUAGUCAUUUUAUAUGACUCAGAUUGGAAUCCGCAAGUUGAUCUUCAGGCUAUGGACCGUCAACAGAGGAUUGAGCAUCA` the bound/input enrichment was 0.142 ratio.
With `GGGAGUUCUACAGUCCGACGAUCUACUCAACUUUCUUGCCACAUUUUGAAUUCCAAGACAUUAUCCCUCCAGAUGACUUCCUAACGAGUGAUGAAGAAGUAGAUUUGGUUUUAUUUGGAACUAUGAGAGGACAAGUUGUUGGACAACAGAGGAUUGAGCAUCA` the bound/input enrichment was 0.248 ratio.

Set 2 — method: RNA Bind-n-Seq; form: RNA; sample: in vitro; concentration: 20 nM; setting: 6-mer, flanks averaged, single round; with: 150 mM LiCl; relative to: input library; direction: higher = stronger binding
Target: TAR DNA-binding protein 43, full length, His tag (TARDBP, Homo sapiens, UniProt Q13148, residues 1-414)
`UUACCC`: “6-mer enrichment (R)” 1.04.
`UAGCCU` — result for “6-mer enrichment (R)”: 0.938.
`GCCCUG`: “6-mer enrichment (R)” 1.02.
Under “6-mer enrichment (R)”, `CAAACU` is recorded as 0.818.
For `AGCCAC`, “6-mer enrichment (R)” read 0.9.
`CGACCU` — result for “6-mer enrichment (R)”: 0.816.
For `GUUCAC`, “6-mer enrichment (R)” read 0.87.
For `CGGCGU`, “6-mer enrichment (R)” read 1.

Set 3 — target: Sox-I, HMG box (Salpingoeca helianthica); method: Spec-seq; form: double-stranded DNA, one strand shown; sample: in vitro; concentration: not given; setting: whole probe, mean of replicates; relative to: not given; direction: lower = stronger binding; all sequences stand within: GAGTCGTCTCGTCAGCAC … CCGTAGAGCACTCAGGTC
Residues (chain): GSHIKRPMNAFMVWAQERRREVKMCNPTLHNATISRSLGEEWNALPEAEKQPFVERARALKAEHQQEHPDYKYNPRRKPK
`GTTAGTT` — result for “relative binding energy”: 0.548 ln ratio.
`CATGATT`: “relative binding energy” 0.612 ln ratio.
Under “relative binding energy”, `GGCAGTT` is recorded as 0.978 ln ratio.
`TGCCGTT`: “relative binding energy” 0.651 ln ratio.
Under “relative binding energy”, `TAGTGTT` is recorded as -0.0462 ln ratio.
`TGTTGTT`: “relative binding energy” -1.68 ln ratio.
`CATCTTT`: “relative binding energy” 0.455 ln ratio.
`CATAACC`: “relative binding energy” 0.601 ln ratio.

Other studies, line by line — starting sequence: viral docking peptide; TSVRRALFTGGSD
Under “normalised enrichment score”, `G10C` is recorded as 3.81 (CCNE2, cyclin fold, Cln2 fusion (human); yeast growth competition, sequencing; yeast; strong parent motif; relative to: not given, higher = stronger binding).

A few entries again (set 3):
`TGCCGTT`: “relative binding energy” 0.651 ln ratio.
Under “relative binding energy”, `TAGTGTT` is recorded as -0.0462 ln ratio.
`TGTTGTT`: “relative binding energy” -1.68 ln ratio.
